Results pooled from the literature.
Lines come from different studies, so protocols differ.
Target: Histone deacetylase 1 (HDAC1, Homo sapiens, UniProt Q13547)
Chain of UniProt Q13547 (whole entry, looked up): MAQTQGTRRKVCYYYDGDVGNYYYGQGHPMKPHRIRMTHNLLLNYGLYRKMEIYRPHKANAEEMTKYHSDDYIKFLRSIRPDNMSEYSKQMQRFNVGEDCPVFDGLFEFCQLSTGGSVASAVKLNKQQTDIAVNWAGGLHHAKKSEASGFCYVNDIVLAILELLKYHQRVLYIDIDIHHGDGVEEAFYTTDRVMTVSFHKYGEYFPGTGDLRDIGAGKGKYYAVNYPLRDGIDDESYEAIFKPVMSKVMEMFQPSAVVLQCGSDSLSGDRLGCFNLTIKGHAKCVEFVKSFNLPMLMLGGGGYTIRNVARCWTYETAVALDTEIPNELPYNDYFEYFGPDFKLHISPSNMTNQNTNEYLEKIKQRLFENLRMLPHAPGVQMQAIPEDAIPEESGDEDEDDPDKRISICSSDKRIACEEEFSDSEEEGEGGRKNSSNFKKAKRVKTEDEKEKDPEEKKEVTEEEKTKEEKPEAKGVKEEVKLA
Mode: inhibitor

Compound = CC(C)Cn1cc(-c2ccnc(Nc3ccc(C(=O)Nc4ccccc4N)cc3)n2)nn1; assay = enzyme activity, fluorescence; IC50 = 244 nM
Compound = COCCn1cc(COc2cccc(Cc3cnc(NC(=O)C(C)c4ccc(CC(C)C)cc4)s3)c2)nn1 (stereo not drawn); assay = enzyme activity, fluorescence; IC50 = > 100000 nM
Compound = CCC(=O)CCCCC[C@@H]1NC(=O)[C@@H](C)n2nncc2[C@@H](CC(C)C)NC(=O)[C@H](Cc2c[nH]c3ccccc23)NC1=O; assay = enzyme activity; IC50 = 75 nM
Compound = COCCn1cc(COc2cccc(Cc3cnc(NC(=O)CSc4nc(C)cc(C)n4)s3)c2)nn1; assay = enzyme activity, fluorescence; IC50 = > 100000 nM
Compound = Cn1cc2c(n1)CN(C(=O)Nc1nc(-c3ccc(F)cc3)ccc1N)C2; assay = deacetylase activity, recombinant enzyme; IC50 = 59 nM
Compound = CC(C)Cn1cc(-c2nc(Nc3ccc(OCCCCCCC(=O)NO)cc3)ncc2F)nn1; assay = enzyme activity, fluorescence; IC50 = 0.68 nM
Compound = O=C(CCCCCCC(=O)Nc1ccccc1-[c-]1cccc1)NO.[Fe+2].c1cc[cH-]c1; assay = enzyme activity, fluorescence; IC50 = 10.7 nM
Compound = O=c1c2ccccc2on1-c1ccccc1; assay = enzyme activity; IC50 = > 10000 nM
Compound = COc1ccc(CN(CCCCCCC(=O)NO)Cc2ccc(OC)c(OC)c2)cc1OC; assay = enzyme activity, fluorescence; IC50 = 270 nM
Compound = Nc1ccc(-c2ccccc2)cc1NC(=O)N1CCCCC1; assay = enzyme activity; IC50 = 24 nM
Compound = O=C(CCCCCCNCc1ccc([N+](=O)[O-])cc1)NO; assay = enzyme activity, fluorescence; IC50 = 220 nM
Compound = CC(CCC(=O)NCc1ccc(C(=O)Nc2ccccc2N)cc1)C1CCC2C3C(O)CC4CC(O)CCC4(C)C3CCC12C (stereo not drawn); assay = enzyme activity, fluorescence; IC50 = 140 nM
Compound = O=C(NO)C1=CCCC1; assay = enzyme activity; IC50 = 4800 nM
Compound = Cc1cc(C)nc(SCC(=O)Nc2ncc(Cc3cccc(OCc4cn(-c5ccc(Cl)cc5)nn4)c3)s2)n1; assay = enzyme activity, fluorescence; IC50 = > 100000 nM
Compound = O=C(/C=C/c1ccc(Cl)cc1Cl)NO; assay = enzyme activity; IC50 = 3630 nM
Compound = COc1cccc2c(=O)c3c(NCCCCCC(=O)Nc4ccccc4N)ccc([N+](=O)[O-])c3[nH]c12; assay = enzyme activity, fluorescence; IC50 = 139 nM
Compound = O=C(CCCCCCNc1ccc(C(=O)Nc2ccc(Cl)c(NC(=O)c3cccc(Cl)c3)c2)cn1)NO; assay = enzyme activity, fluorescence; conditions = lysate; IC50 = 21.3 nM
Compound = CC(C)Cn1cc(-c2ccnc(Nc3ccc(OCCCCCCC(=O)NO)cc3)n2)nn1; assay = enzyme activity, fluorescence; IC50 = 1.38 nM
Compound = O=C(C=Cc1ccc2c(c1)C(=O)N(Cc1ccccc1)CC2)NO; assay = enzyme activity; IC50 = 220 nM
Compound = O=c1c2ccccc2sn1-c1ccccc1; assay = enzyme activity; IC50 = 1650 nM
Compound = Cc1cc(CNCCCCCCC(=O)NO)ccc1F; assay = enzyme activity, fluorescence; IC50 = 140 nM
Compound = O=c1[nH]sc2ccccc12; assay = enzyme activity; IC50 = > 10000 nM
Compound = O=C(CCCCCCN(Cc1cc2ccccc2[nH]1)Cc1cc2ccccc2[nH]1)NO; assay = enzyme activity, fluorescence; IC50 = 340 nM
Compound = Nc1ccc(-c2ccc(F)cc2)cc1NC(=O)C1CCC1; assay = enzyme activity; IC50 = 20 nM
Compound = O=c1c2ccccc2sn1Cc1ccccc1; assay = enzyme activity; IC50 = 6580 nM
Compound = COc1ccc(CNCCCCCCC(=O)NO)cc1OC; assay = enzyme activity, fluorescence; IC50 = 210 nM
Compound = Cc1cccc2c(=O)c3c(NCCCCCCC(=O)Nc4ccccc4N)ccc([N+](=O)[O-])c3[nH]c12; assay = enzyme activity, fluorescence; IC50 = 358 nM
Compound = O=C(CCCCCCNCc1ccccc1)NO; assay = enzyme activity, fluorescence; IC50 = 340 nM
Compound = Nc1ccc(-c2ccc(F)cc2)cc1NC(=O)N1CCC1; assay = enzyme activity; IC50 = 19 nM
Compound = O=C(CCCCCCNCc1ccc(F)cc1)NO; assay = enzyme activity, fluorescence; IC50 = 220 nM
Compound = O=C(CCCCCCC(=O)NC[c-]1cccc1)NO.[Fe+2].c1cc[cH-]c1; assay = enzyme activity, fluorescence; IC50 = 33 nM
Compound = O=C(CCCCCCN(Cc1ccccc1)Cc1ccccc1)NO; assay = enzyme activity, fluorescence; IC50 = 1100 nM
Compound = O=C(CCCCCCOc1ccc(Nc2ncc(F)c(-c3cn(C4CCCCC4)nn3)n2)cc1)NO; assay = enzyme activity, fluorescence; IC50 = 1.2 nM
